Measurements pooled from the literature.
A part holds a random share of what one study measured. Values joined by “and” are separate records of one study, mostly repeats; a detail may differ.
Chain of UniProt P41145 (whole entry, looked up): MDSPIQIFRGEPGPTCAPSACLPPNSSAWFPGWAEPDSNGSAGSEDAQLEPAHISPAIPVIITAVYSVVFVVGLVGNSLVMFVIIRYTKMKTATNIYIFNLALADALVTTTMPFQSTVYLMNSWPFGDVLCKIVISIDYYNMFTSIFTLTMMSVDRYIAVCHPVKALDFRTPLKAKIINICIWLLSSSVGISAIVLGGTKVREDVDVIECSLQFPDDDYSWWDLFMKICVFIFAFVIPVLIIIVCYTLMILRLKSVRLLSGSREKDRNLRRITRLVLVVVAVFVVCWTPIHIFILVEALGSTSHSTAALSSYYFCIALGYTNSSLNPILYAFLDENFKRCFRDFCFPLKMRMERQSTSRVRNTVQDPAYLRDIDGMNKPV
Chain of UniProt Q01959 (whole entry, looked up): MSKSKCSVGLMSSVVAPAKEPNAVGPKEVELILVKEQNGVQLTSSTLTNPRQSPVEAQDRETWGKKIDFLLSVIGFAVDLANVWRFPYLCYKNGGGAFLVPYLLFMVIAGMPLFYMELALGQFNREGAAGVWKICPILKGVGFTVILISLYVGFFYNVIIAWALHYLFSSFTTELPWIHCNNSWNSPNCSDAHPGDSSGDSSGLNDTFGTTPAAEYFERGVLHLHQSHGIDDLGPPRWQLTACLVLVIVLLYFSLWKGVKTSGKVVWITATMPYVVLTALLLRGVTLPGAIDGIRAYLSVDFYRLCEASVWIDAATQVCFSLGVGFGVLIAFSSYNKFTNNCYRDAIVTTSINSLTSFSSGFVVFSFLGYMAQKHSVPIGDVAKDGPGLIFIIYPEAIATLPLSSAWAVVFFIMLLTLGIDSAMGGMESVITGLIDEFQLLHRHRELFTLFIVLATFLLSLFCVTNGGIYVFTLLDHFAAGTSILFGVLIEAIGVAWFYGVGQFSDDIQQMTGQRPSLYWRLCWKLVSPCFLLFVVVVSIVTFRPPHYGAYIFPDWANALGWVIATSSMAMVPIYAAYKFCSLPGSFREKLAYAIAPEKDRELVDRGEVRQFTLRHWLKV
Chain of UniProt P11229 (whole entry, looked up): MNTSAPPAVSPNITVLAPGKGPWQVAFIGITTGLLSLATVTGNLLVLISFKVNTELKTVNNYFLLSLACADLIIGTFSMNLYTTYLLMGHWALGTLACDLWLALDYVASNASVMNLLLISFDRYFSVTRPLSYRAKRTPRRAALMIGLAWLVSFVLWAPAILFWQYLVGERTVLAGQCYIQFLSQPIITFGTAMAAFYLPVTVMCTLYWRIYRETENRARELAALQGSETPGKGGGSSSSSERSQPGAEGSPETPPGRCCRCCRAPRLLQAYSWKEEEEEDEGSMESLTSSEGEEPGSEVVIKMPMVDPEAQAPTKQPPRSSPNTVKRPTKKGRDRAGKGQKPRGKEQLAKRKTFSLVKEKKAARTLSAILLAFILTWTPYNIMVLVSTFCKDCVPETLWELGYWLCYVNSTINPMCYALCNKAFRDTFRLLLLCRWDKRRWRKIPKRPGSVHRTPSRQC

Series 1
Target: Beta-1 adrenergic receptor (ADRB1, Homo sapiens, UniProt P08588)
Chain of UniProt P08588 (whole entry, looked up): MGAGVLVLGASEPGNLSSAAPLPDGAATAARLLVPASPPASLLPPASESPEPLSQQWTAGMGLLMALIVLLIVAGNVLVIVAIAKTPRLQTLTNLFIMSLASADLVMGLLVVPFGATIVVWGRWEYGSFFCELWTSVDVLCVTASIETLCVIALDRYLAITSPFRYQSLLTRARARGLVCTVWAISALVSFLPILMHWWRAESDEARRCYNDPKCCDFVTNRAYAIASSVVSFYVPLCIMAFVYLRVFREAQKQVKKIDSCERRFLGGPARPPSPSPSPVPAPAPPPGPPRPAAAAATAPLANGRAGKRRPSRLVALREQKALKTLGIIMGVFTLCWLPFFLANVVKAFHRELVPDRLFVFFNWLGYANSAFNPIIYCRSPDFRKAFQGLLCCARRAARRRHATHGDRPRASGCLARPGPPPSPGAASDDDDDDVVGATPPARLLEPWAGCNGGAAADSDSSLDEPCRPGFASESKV
Action: agonist
SMILES | EC50 [µM]
CC(C)(C)NCC(O)c1ccc(O)c(O)c1 (stereo not shown) | ≥ 100
Fc1cc(C2=CC3CCC(C2)N3Cc2ccc3ccccc3n2)ccc1-c1ccccc1 (stereo not shown) | ≥ 100
O=C1NCC2(CCCN(Cc3cc(O)c4cccc(F)c4n3)C2)O1 (stereo not shown) | ≥ 100
CCC(O)c1cc2n(n1)CCN(c1nc(-c3ccccc3)nc3c1CCC3)C2 (stereo not shown) | ≥ 100
COc1cc(CCN)ccc1O | ≥ 100

Series 2
Structure (SMILES): O=C(O)[C@H]1[C@H](Cn2nnc3ccccc3c2=O)CC[C@@H]1C(=O)c1ccc(OCCC2CCOCC2)cc1
Read-out: ligand displacement
Tested at: 10 µM
target | inhibition
Muscarinic acetylcholine receptor M1 (CHRM1, Homo sapiens, UniProt P11229) | 18%
Kappa-type opioid receptor (OPRK1, Homo sapiens, UniProt P41145) | -3.04%
Muscarinic acetylcholine receptor M3 (CHRM3, Homo sapiens, UniProt P20309) | -7.32%
Sodium-dependent dopamine transporter (SLC6A3, Homo sapiens, UniProt Q01959) | -10.4%

Series 3
Target: Eukaryotic initiation factor 4A-I (EIF4A1, Homo sapiens, UniProt P60842)
Chain of UniProt P60842 (whole entry, looked up): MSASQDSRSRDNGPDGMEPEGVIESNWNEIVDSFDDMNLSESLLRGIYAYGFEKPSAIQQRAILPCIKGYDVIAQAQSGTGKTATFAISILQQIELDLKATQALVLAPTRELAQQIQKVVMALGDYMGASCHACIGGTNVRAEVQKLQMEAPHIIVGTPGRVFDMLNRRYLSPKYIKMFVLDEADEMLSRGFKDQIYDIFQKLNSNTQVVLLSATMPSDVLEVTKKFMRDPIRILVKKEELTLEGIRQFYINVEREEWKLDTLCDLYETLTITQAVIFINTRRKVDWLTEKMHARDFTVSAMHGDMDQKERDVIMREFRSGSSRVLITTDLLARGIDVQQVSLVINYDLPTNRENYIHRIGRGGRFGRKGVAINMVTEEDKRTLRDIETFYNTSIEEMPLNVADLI
Read-out: RNA clamping
Technique: fluorescence polarization
Tested at: concentration not given
Notes: mean of two replicates
With: FAM-labelled poly r(AG)8 RNA
SMILES | fluorescence polarization change
COc1ccc([C@@]23Oc4cc(OC)cc(OC)c4[C@]2(O)c2nc(-c4cccnc4)[nH]c(=O)c2[C@H]3c2ccccc2)cc1 | 45.8 mP
COc1ccc([C@@]23Oc4cc(OC)cc(OC)c4[C@]2(O)[C@H](O)[C@H](C(=O)O)[C@H]3c2ccccc2)cc1 | 51.1 mP and 59.3 mP
COC(=O)[C@H]1[C@@H](O)[C@@]2(O)c3c(OC)cc(OC)cc3O[C@@]2(c2ccc(Br)cc2)[C@@H]1c1ccccc1 | 38.5 mP
COc1ccc([C@@]23Oc4cc(OC)cc(OC)c4[C@]2(O)c2nc(-c4ccncc4)[nH]c(=O)c2[C@H]3c2ccccc2)cc1 | 23.9 mP
COc1ccc([C@]23Oc4cc(OC)cc(OC)c4[C@@]2(O)[C@@H](O)C[C@@H]3c2ccccc2)cc1 | 1.8 mP

Other studies, line by line
Target: DNA polymerase theta, ATPase domain (POLQ, Homo sapiens, UniProt O75417)
Chain of UniProt O75417 (whole entry, unmodified, looked up): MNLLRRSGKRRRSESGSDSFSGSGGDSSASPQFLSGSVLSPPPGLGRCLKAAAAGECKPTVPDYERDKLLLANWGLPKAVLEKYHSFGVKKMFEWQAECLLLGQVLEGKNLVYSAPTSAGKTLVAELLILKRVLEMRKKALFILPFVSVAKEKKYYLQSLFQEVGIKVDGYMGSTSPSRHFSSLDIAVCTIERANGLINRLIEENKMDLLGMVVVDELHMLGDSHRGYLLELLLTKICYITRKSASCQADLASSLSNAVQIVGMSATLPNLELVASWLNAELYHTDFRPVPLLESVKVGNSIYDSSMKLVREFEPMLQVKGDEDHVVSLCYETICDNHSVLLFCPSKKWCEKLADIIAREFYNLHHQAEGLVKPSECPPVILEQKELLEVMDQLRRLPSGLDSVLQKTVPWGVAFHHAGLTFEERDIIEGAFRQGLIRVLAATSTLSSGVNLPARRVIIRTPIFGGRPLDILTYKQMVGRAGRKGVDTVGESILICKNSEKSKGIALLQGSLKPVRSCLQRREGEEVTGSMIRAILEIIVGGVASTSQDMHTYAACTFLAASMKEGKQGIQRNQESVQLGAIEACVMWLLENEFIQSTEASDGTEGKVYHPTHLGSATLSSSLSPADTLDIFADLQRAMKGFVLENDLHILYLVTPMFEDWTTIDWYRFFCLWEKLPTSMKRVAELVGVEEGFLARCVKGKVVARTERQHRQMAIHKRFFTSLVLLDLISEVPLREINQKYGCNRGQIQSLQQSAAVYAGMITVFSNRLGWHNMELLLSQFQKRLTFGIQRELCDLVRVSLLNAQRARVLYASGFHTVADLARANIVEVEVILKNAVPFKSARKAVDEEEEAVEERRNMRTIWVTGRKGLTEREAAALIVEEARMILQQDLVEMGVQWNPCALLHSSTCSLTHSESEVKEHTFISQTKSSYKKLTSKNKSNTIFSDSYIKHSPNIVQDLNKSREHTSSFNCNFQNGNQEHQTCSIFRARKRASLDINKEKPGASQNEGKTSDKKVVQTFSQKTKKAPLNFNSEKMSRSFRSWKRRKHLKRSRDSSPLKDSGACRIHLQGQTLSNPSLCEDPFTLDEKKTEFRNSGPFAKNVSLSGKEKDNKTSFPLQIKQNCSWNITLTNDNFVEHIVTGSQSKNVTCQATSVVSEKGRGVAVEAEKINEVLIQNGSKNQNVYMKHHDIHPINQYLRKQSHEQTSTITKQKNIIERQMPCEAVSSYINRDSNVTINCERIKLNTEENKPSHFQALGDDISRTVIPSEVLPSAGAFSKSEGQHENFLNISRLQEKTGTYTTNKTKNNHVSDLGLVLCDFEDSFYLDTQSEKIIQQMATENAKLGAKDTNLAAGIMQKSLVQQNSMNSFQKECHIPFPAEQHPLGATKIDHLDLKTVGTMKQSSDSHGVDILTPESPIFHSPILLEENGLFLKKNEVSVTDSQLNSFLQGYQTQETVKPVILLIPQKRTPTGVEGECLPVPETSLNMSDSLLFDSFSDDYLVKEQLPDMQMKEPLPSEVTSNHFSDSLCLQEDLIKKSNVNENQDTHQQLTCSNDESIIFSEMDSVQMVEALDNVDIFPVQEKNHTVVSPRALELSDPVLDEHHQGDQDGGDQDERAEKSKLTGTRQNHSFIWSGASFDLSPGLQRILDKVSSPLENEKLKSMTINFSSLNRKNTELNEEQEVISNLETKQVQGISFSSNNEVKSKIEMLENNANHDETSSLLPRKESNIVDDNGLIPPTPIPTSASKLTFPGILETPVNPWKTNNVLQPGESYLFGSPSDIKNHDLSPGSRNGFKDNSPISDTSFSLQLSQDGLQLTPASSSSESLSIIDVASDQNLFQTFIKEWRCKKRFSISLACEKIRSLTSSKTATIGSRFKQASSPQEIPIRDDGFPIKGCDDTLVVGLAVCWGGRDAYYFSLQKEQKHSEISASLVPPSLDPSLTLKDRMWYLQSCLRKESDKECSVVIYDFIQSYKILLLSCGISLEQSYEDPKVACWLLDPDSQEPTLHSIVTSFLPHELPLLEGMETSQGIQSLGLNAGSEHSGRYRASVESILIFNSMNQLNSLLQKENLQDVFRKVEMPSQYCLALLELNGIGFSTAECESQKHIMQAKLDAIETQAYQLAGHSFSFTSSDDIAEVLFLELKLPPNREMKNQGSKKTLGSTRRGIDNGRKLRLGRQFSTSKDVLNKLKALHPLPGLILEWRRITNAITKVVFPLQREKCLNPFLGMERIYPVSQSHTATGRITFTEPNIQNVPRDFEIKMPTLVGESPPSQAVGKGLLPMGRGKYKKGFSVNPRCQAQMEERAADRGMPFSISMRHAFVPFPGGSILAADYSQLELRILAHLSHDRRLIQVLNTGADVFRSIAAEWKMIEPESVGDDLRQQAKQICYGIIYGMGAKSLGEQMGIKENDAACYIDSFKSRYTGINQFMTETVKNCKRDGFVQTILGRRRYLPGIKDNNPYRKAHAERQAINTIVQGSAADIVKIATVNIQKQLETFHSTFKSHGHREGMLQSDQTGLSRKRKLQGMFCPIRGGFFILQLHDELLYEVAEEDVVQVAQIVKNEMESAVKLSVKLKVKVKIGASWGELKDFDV
Read-out: enzyme activity
Action: inhibitor
Tested at: 77 µM
Reference: untreated
Structure (SMILES) | remaining activity
C[C@]12CCC(=O)C=C1C=C[C@@H]1[C@@H]2CC[C@@]2(C)[C@H]1CC[C@@]2(O)CCC(=O)O | 101%
C#C[C@]1(O)C=C[C@H]2[C@@H]3CCC4=CC(=O)CC[C@@H]4[C@H]3CC[C@@]21CC | 99%

A few entries again (series 1):
SMILES | EC50 [µM]
CCC(O)c1cc2n(n1)CCN(c1nc(-c3ccccc3)nc3c1CCC3)C2 (stereo not shown) | ≥ 100
COc1cc(CCN)ccc1O | ≥ 100
Fc1cc(C2=CC3CCC(C2)N3Cc2ccc3ccccc3n2)ccc1-c1ccccc1 (stereo not shown) | ≥ 100
